Published values collected from several papers.
Protocols differ between the studies behind these lines. Several values in a cell are separate wells, animals, samples, runs or records. ± gives the spread as reported.
T1: TOA1/TOA2 1-286; 1-122 (Saccharomyces cerevisiae); chain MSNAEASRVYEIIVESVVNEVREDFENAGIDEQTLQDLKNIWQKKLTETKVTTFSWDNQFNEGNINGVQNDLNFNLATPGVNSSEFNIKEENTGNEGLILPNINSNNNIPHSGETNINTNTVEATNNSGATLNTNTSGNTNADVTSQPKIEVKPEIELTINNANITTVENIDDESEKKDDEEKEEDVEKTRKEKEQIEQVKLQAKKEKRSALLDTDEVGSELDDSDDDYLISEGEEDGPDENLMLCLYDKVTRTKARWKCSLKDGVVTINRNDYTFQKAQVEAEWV; chain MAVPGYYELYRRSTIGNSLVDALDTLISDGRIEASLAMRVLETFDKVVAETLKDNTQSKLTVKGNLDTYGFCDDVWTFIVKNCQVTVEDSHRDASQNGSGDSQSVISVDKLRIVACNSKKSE
B1: PRPF19 (human); sequence looked up; chain SLICSISNEVPEHPCVSPVSNHVYERRLIEKYIAENGTDPINNQPLSEEQLIDIKVAHPIRPKPPSATSIPAILKALQDEWDAVMLHSFTLRQQLQTTRQELSHALYQHDAACRVIARLTKEVTAAREALATLKPQAGLIVPQAVPSSQPSVVGAGEPMDLGELVGMTPEIIQKLQDKATVLTTERKKRGKTVPEELVKPEELSKYRQVASHVGLHSASIPGILALDLCPSDTNKILTGGADKNVVVFDKSSEQILATLKGHTKKVTSVVFHPSQDLVFSASPDATIRIWSVPNASCVQVVRAHESAVTGLSLHATGDYLLSSSDDQYWAFSDIQTGRVLTKVTDETSGCSLTCAQFHPDGLIFGTGTMDSQIKIWDLKERTNVANFPGHSGPITSIAFSENGYYLATAADDSSVKLWDLRKLKNFKTLQLDNNFEVKSLIFDQSGTYLALGGTDVQIYICKQWTEILHFTEHSGLTTGVAFGHHAKFIASTGMDRSLKFYSL
B2: human AP2B1; sequence looked up; chain TDSKYFTTNKKGEIFELKAELNNEKKEKRKEAVKKVIAAMTVGKDVSSLFPDVVNCMQTDNLELKKLVYLYLMNYAKSQPDMAIMAVNSFVKDCEDPNPLIRALAVRTMGCIRVDKITEYLCEPLRKCLKDEDPYVRKTAAVCVAKLHDINAQMVEDQGFLDSLRDLIADSNPMVVANAVAALSEISESHPNSNLLDLNPQNINKLLTALNECTEWGQIFILDCLSNYNPKDDREAQSICERVTPRLSHANSAVVLSAVKVLMKFLELLPKDSDYYNMLLKKLAPPLVTLLSGEPEVQYVALRNINLIVQKRPEILKQEIKVFFVKYNDPIYVKLEKLDIMIRLASQANIAQVLAELKEYATEVDVDFVRKAVRAIGRCAIKVEQSAERCVSTLLDLIQTKVNYVVQEAIVVIRDIFRKYPNKYESIIATLCENLDSLDEPDARAAMIWIVGEYAERIDNADELLESFLEGFHDESTQVQLTLLTAIVKLFLKKPSETQELVQQVLSLATQDSDNPDLRDRGYIYWRLLSTDPVTAKEVVLSEKPLISEETDLIEPTLLDELICHIGSLASVYHKPPNAFVEGSHGIHRKHLPIHHGSTDAGDSPVGTTTATNLEQPQVIPSQGDLLGDLLNLDLGPPVNVPQVSSMQMGAVDLLGGGLDSLVGQSFIPSSVPATFAPSPTPAVVSSGLNDLFELSTGIGMAPGGYVAPKAVWLPAVKAKGLEISGTFTHRQGHIYMEMNFTNKALQHMTDFAIQFNKNSFGVIPSTPLAIHTPLMPNQSIDVSLPLNTLGPVMKMEPLNNLQVAVKNNIDVFYFSCLIPLNVLFVEDGKMERQVFLATWKDIPNENELQFQIKECHLNADTVSSKLQNNNVYTIAKRNVEGQDMLYQSLKLTNGIWILAELRIQPGNPNYTLSLKCRAPEVSQYIYQVYDSILKN
B3: general transcription factor II-I (human); sequence looked up; chain AQVAMSTLPVEDEESSESRMVVTFLMSALESMCKELAKSKAEVACIAVYETDVFVVGTERGRAFVNTRKDFQKDFVKYCVEEEEKAAEMHKMKSTTQANRMSVDAVEIETLRKTVEDYFCFCYGKALGKSTVVPVPYEKMLRDQSAVVVQGLPEGVAFKHPENYDLATLKWILENKAGISFIIKRPFLEPKKHVGGRVMVTDADRSILSPGGSCGPIKVKTEPTEDSGISLEMAAVTVKEESEDPDYYQYNIQAGPSETDDVDEKQPLSKPLQGSHHSSEGNEGTEMEVPAEDSTQHVPSETSEDPEVEVTIEDDDYSPPSKRPKANELPQPPVPEPANAGKRKVREFNFEKWNARITDLRKQVEELFERKYAQAIKAKGPVTIPYPLFQSHVEDLYVEGLPEGIPFRRPSTYGIPRLERILLAKERIRFVIKKHELLNSTREDLQLDKPASGVKEEWYARITKLRKMVDQLFCKKFAEALGSTEAKAVPYQKFEAHPNDLYVEGLPENIPFRSPSWYGIPRLEKIIQVGNRIKFVIKRPELLTHSTTEVTQPRTNTPVKEDWNVRITKLRKQVEEIFNLKFAQALGLTEAVKVPYPVFESNPEFLYVEGLPEGIPFRSPTWFGIPRLERIVRGSNKIKFVVKKPELVISYLPPGMASKINTKALQSPKRPRSPGSNSKVPEIEVTVEGPNNNNPQTSAVRTPTQTNGSNVPFKPRGREFSFEAWNAKITDLKQKVENLFNEKCGEALGLKQAVKVPFALFESFPEDFYVEGLPEGVPFRRPSTFGIPRLEKILRNKAKIKFIIKKPEMFETAIKESTSSKSPPRKINSSPNVNTTASGVEDLNIIQVTIPDDDNERLSKVEKARQLREQVNDLFSRKFGEAIGMGFPVKVPYRKITINPGCVVVDGMPPGVSFKAPSYLEISSMRRILDSAEFIKFTVIRPFPGLVINNQLVDQSESEGPVIQESAEPSQLEVPATEEIKETDGSSQIKQEPDPTW
Sequence of UniProt P26368 (whole entry, looked up): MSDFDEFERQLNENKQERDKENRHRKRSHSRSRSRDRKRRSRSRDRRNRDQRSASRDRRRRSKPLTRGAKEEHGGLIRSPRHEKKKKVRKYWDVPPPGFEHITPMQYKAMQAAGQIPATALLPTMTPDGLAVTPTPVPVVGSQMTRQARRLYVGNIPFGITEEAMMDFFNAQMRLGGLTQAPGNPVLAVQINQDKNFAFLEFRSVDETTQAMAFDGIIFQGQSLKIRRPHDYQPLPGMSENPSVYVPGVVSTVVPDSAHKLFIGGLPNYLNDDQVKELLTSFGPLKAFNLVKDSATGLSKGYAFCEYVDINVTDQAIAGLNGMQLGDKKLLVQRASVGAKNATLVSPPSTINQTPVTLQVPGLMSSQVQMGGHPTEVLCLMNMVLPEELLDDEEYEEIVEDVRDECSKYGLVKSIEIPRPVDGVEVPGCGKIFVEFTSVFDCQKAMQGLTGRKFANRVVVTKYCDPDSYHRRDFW

With `GSGAGKETRV` the binding intensity was 0.265 (construct, MBP fusion, human SCRIB, PDZ 3-4; automated holdup; peptide, crude extract; concentration not given, uncorrected, unit not given; baseline: biotin control resin, higher = stronger binding).
For `CTOP`, the retention time was 5.95 min (RP-HPLC; HALO RP-amide column; 25 µM, formic acid/acetonitrile, 25 min gradient).
With `11-deoxycorticosterone` the Kd was 3.53 µM (CYP11B2 (human); substrate binding, stopped-flow global kinetic fitting; purified enzyme; model, linear, 4 state, CS-IF, added: equimolar adrenodoxin).
`POTE ankyrin domain F (human)` — result for “log2 fold change”: -0.38 (CYB5R4 knockout human cells; PP4 interaction, 3xFLAG-PP4C IP-MS; concentration not given; baseline: CYB5R4 KO over parental).
`Peginesatide` has a phosphorylation level of 36.4 fold (UT7/EPO; tyrosine phosphorylation, LC-MS/MS phosphoproteomics, trypsin, item: SHIP2 tyrosine 986; 10 nM, 15 min, added: 10 U/mL EPO; baseline: vehicle).
For `colistin`, the MIC was 2 µg/mL (Pseudomonas aeruginosa; PA1102 PER-producing isolate).
`colistin` has an MIC of 64 µg/mL (Acinetobacter baumannii; broth microdilution; clinical isolate RKI-No_16/16).
`B1 (PRPF19)` — result for “log2 fold change”: -0.25 (CYB5R4 knockout human cells; PP6 interaction, 3xFLAG-PP6C IP-MS; concentration not given; baseline: CYB5R4 KO over parental).
`cotadutide` gave a metabolite level of 1.54 ± 0.06 scaled intensity (metabolomics, item: hepatic glutamate; ob/ob mice on AMLN diet, NASH model, liver; dose not given).
For `GSGAGKETYY`, the binding intensity was -0.00579 (construct, MBP fusion, human SCRIB, PDZ 3-4; automated holdup; peptide, purified PDZ protein; concentration not given, unit not given; baseline: biotin control resin, higher = stronger binding).
With `DNA 1 GATCGATCGATCGATCGATCGATCGATCGATCGATTCAATTCAATCGGTCC / DNA 2 GGACCGATTGACTTGAATCGATCGATCGATCGATCGATCGATCGATCGATC (dsDNA; 5'-amino-C6 primer)` the Kd was 0.117 ± 0.0605 µM (T1, TOA1/TOA2 1-286; 1-122 (Saccharomyces cerevisiae); array; double-stranded DNA; TFIIA alone).
`B2 (human AP2B1)` — result for “log2 fold change”: 0.19 (CYB5R4 knockout human cells; PP4 interaction, 3xFLAG-PP4C IP-MS; concentration not given; baseline: CYB5R4 KO over parental).
The binding intensity of `GSGAGQITKV` is reported as 0.0678 (construct, MBP fusion, human SCRIB, PDZ 3-4; automated holdup; peptide, crude extract; concentration not given, uncorrected, unit not given; baseline: biotin control resin, higher = stronger binding).
`AGGCUGAUAUUUCUUUGAG (ssRNA)` has a Kd of 4.44 ± 2.45 µM (U2AF2 148-342 (Homo sapiens, UniProt P26368); MST; RNA).
With `MTVCNASQRQAHAQATAVSL` the selectivity ratio was 2.8 ± 0.48 (Calu-1 lung mucoepidermoid carcinoma; phage binding output/input; peptide; baseline: control phage).
`milbemycin oxime` gave an OD600 of 0.934 and 0.958 and 0.969 (Saccharomyces cerevisiae; cell growth; Pdr5 deleted, Cdr1 overexpressed; 2^-5.381 µg/mL, added: fluconazole 1 µg/mL).
For `human ME2 F68V`, the Hill coefficient was 1.59 ± 0.07 (enzyme activity, NADH absorbance; without fumarate, added: L-malate varied).
`B3`: “log2 fold change” -0.8 (CYB5R4 knockout human cells; PP4 interaction, 3xFLAG-PP4C IP-MS; concentration not given; baseline: CYB5R4 KO over parental).
For `caspofungin`, the alanine aminotransferase was 20 U/L (adult ICU patients, mITT, serum; dose not given, day 30).

Excerpt of the above:
The binding intensity of `GSGAGQITKV` is reported as 0.0678 (construct, MBP fusion, human SCRIB, PDZ 3-4; automated holdup; peptide, crude extract; concentration not given, uncorrected, unit not given; baseline: biotin control resin, higher = stronger binding).
`AGGCUGAUAUUUCUUUGAG (ssRNA)` has a Kd of 4.44 ± 2.45 µM (U2AF2 148-342 (Homo sapiens, UniProt P26368); MST; RNA).
